# Assay results of several laboratories.
# A part holds a random share of what one study measured.
# UniProt O14757, sequence (whole entry, looked up): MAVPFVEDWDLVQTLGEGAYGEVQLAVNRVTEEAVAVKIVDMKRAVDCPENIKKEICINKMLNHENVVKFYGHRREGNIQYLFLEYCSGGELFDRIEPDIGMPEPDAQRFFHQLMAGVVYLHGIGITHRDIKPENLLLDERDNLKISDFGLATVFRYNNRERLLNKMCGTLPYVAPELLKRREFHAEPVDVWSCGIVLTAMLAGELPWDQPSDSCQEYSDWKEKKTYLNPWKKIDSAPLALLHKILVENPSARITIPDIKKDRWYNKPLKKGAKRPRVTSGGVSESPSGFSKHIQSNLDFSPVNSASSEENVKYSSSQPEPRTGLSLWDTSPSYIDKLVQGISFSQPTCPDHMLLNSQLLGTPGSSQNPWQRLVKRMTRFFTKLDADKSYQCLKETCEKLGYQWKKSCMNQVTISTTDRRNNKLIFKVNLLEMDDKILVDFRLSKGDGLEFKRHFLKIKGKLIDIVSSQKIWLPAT
# UniProt Q9H422, sequence (whole entry, looked up): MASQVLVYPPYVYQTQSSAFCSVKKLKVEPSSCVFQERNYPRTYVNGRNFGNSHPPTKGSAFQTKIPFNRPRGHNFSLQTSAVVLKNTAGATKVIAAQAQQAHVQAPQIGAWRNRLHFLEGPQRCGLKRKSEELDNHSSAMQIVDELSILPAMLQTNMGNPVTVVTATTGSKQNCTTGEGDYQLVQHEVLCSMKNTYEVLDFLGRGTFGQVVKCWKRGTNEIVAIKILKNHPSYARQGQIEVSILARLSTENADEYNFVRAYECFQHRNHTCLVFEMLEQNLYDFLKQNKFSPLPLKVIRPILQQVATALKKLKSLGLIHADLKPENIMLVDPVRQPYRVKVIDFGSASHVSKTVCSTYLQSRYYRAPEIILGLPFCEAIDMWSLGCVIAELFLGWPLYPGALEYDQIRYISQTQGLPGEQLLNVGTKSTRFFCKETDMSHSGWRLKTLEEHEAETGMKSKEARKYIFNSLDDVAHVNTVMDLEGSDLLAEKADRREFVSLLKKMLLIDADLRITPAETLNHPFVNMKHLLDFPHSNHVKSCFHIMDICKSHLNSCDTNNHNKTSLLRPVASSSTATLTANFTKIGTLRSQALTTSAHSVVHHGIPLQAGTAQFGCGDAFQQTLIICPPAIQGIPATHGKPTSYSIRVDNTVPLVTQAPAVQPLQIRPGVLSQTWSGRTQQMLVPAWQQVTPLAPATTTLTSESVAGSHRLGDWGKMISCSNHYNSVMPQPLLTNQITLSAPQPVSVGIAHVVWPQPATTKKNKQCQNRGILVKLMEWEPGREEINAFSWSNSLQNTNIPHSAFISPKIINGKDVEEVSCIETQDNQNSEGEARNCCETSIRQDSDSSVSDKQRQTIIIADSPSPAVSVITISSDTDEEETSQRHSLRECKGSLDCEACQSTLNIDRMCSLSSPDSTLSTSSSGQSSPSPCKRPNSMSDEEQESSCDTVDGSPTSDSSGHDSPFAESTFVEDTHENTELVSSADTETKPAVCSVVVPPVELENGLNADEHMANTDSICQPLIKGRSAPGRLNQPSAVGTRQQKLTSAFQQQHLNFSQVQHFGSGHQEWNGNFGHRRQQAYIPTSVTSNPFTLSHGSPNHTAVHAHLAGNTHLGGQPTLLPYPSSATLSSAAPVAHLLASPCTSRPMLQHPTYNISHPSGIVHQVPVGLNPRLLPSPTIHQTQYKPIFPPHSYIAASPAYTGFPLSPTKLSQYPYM
# UniProt Q12851, sequence (whole entry, looked up): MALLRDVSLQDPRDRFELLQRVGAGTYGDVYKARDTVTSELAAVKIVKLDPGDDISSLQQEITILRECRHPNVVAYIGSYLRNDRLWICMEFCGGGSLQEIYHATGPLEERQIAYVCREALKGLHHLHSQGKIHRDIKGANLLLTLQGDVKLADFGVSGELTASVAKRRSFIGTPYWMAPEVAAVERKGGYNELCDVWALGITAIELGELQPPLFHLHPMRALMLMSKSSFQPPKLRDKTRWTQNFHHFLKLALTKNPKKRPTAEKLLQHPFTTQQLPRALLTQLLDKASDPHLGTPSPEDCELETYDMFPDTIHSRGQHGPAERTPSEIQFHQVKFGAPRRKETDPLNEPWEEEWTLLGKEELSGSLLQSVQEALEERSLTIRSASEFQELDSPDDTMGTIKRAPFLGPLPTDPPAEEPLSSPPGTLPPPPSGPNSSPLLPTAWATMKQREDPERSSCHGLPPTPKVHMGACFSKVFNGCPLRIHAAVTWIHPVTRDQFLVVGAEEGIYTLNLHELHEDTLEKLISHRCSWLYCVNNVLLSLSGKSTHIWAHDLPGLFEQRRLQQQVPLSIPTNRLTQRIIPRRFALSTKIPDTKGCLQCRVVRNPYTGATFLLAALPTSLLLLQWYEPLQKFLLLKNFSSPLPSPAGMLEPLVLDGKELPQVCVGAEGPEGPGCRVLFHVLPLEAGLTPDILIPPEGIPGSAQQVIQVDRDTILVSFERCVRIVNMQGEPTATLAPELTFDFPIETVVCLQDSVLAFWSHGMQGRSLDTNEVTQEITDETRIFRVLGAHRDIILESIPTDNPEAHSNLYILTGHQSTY
# UniProt P48729, sequence (whole entry, looked up): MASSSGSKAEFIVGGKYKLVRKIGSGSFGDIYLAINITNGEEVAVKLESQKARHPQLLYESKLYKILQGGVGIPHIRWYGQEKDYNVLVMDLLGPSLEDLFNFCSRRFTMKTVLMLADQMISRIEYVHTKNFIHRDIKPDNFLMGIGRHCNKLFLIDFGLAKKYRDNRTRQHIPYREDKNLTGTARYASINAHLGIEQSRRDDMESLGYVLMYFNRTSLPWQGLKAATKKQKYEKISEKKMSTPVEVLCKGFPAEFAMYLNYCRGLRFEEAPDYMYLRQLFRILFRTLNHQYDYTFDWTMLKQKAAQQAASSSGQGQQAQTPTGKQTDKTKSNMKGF
# UniProt Q8NEV4, sequence (whole entry, looked up): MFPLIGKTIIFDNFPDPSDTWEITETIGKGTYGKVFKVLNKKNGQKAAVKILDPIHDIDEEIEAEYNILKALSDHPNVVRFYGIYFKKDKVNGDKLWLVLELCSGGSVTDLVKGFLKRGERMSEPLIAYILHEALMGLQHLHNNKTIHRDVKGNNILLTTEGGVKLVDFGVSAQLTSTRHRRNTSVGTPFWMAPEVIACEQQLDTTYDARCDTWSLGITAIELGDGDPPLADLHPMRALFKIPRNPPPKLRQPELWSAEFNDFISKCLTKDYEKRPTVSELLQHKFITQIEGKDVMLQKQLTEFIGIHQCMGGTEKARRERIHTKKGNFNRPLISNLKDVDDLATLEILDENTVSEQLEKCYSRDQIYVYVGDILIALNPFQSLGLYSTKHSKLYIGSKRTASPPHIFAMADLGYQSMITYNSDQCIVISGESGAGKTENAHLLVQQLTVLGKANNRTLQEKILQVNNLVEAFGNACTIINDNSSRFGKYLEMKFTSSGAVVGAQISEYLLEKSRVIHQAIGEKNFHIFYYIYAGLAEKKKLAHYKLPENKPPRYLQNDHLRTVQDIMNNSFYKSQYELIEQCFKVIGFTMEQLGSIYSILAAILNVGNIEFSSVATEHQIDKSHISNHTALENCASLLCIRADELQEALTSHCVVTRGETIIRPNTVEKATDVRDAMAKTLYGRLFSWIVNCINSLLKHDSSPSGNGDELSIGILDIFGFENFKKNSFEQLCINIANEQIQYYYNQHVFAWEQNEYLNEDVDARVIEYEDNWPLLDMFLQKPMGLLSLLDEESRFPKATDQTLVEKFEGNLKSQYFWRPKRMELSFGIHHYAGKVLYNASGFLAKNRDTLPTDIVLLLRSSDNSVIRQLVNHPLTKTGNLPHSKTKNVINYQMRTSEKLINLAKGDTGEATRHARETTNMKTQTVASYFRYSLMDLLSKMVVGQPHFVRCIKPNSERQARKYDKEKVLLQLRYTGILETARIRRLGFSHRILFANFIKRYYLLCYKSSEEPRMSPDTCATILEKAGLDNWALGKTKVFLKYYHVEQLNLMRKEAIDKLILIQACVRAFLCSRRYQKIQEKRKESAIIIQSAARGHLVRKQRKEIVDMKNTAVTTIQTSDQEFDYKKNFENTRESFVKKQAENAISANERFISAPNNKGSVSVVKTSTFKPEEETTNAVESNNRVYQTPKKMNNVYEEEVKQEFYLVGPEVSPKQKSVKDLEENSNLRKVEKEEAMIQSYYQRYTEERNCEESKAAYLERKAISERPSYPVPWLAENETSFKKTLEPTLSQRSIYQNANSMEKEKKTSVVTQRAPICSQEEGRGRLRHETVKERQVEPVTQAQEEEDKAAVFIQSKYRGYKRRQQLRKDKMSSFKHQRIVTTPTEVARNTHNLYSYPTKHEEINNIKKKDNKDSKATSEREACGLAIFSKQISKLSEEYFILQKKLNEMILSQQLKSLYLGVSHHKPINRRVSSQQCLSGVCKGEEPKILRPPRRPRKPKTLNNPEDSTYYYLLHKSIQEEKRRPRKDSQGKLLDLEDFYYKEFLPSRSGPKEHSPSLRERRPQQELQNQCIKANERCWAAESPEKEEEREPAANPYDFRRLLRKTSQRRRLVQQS
# UniProt P50750, sequence (whole entry, looked up): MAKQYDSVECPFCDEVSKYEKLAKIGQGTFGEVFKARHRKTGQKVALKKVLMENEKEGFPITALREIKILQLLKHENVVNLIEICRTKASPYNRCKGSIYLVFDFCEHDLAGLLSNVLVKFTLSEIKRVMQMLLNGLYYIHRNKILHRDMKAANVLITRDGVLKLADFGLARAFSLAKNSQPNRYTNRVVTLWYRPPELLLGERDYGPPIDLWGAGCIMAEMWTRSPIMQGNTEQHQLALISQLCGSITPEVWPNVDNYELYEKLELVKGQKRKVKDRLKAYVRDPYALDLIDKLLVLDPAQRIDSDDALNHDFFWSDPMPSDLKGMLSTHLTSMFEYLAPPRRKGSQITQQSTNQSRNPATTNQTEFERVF

# Series 1
# Structure (SMILES): CN1CCN(c2cnc3c(C4CCN(C(=O)c5ccc(OC(F)(F)F)cc5N)CC4)ncnc3c2)CC1
# Technique: competition with immobilised ligand
# Tested at: 1 µM
target,observed,remaining binding
"WNK4 (Homo sapiens, UniProt Q96J92)",cell-free assay,99%
"CAMK1 (Homo sapiens, UniProt Q14012)",cell-free assay,100%
"ERBB4 (Homo sapiens, UniProt Q15303)",cell-free assay,79%
"KDR (Homo sapiens, UniProt P35968)",cell-free assay,100%
"CLK2 (Homo sapiens, UniProt P49760)",cell-free assay,100%
"WEE2 (Homo sapiens, UniProt P0C1S8)",cell-free assay,100%
"Myosin-IIIa (MYO3A, Homo sapiens, UniProt Q8NEV4)",binding,100%
"FLT3 (Homo sapiens, UniProt P36888, K663Q)",cell-free assay,100%
"Ribosomal protein S6 kinase alpha-3, C-terminal kinase domain (RPS6KA3, Homo sapiens, UniProt P51812)",cell-free assay,80%
"IRAK3 (Homo sapiens, UniProt Q9Y616)",cell-free assay,100%
"HIPK3 (Homo sapiens, UniProt Q9H422)",cell-free assay,100%
"Tyrosine-protein kinase ABL1, phosphorylated (ABL1, Homo sapiens, UniProt P00519, Y253F)",cell-free assay,100%
"CAMK4 (Homo sapiens, UniProt Q16566)",cell-free assay,94%

# Series 2
# SMILES: COc1cc2c(N3CCN(C(=O)Nc4ccc(OC(C)C)cc4)CC3)ncnc2cc1OCCCN1CCCCC1
# Observed: enzyme activity
# Action: inhibitor
# Tested at: 0.5 µM
# Baseline: control
target,remaining activity
"MAPK13 (Homo sapiens, UniProt O15264)",99.3%
"PRKCI (Homo sapiens, UniProt P41743)",96.2%
"AKT3 (Homo sapiens, UniProt Q9Y243)",106%
"LRRK2 (Homo sapiens, UniProt Q5S007)",123%
"PLK2 (Homo sapiens, UniProt Q9NYY3)",99.8%
"CHEK1 (Homo sapiens, UniProt O14757)",108%
"Cyclin-dependent kinase 9, with cyclin T1 (CDK9, Homo sapiens, UniProt P50750)",100%
"WNK2 (Homo sapiens, UniProt Q9Y3S1)",97.4%
"CSNK1A1 (Homo sapiens, UniProt P48729)",101%
"MAPK12 (Homo sapiens, UniProt P53778)",96.4%
"MAP2K6 (Homo sapiens, UniProt P52564)",102%
"PRKG1 (Homo sapiens, UniProt Q13976)",82.5%
"IRAK4 (Homo sapiens, UniProt Q9NWZ3)",96%
"CSNK2A1 (Homo sapiens, UniProt P68400)",102%
"MAP4K2 (Homo sapiens, UniProt Q12851)",104%

# Series 3
# Species: mouse
# Sample: microsomes or S9
# Tested at: 2 µM
# Time: 0.5 h
Compound,remaining compound [%]
COC(=O)c1c(C)n(C(C)=O)c2ccc(NS(=O)(=O)c3ccc(F)cc3F)cc12,0.544
COC(=O)C1(C(=O)OC)C[C@@H](c2ccccc2)c2ccc(N(C)C)cc2[C@@H]1CC(=O)C(C)(C)C,0.0827
CCOC(=O)c1ccc(Nc2nc3ccccc3n3cnnc23)cc1,20
COc1cc(C)c(S(=O)(=O)N2CCN(c3cc(-n4ccnc4C)ncn3)CC2)cc1C,1.16
Cc1ccc(-c2sc3cc(Br)ccc3c2-c2ccc(C)cc2)cc1,> 99.9
CCC[C@@H]1CN(c2nc(N(C)C)nc3c2CCCC3)C[C@H]1NS(C)(=O)=O,37.4

# Series 4
# Cell line: mouse MPNST tumor cells
# Technique: high-content nuclear imaging
# Item: cell number
# Tested at: 10 µM
# Time: 12 h
# Setting: mean of 2 replicates
# Baseline: plate mean
# Direction: higher = more cells
Structure (SMILES),nuclei count [z-score]
Cc1cc(C)c(N(Cc2ccccc2)S(=O)(=O)c2ccc(OCCNC(=O)c3cc4ccccc4o3)cc2)c(C(=O)NO)c1,1.23
COC(=O)C(N)Cc1ccc(Cl)cc1 (stereo not drawn),1.51
CCCCC1CCC(c2nc(-c3ccncc3)no2)CC1 (stereo not drawn),-0.863
CC1(C)CCC(C)(C)c2cc(NC(=O)c3ccc(C(=O)O)cc3)ccc21,-1.31
O=C(Nc1nc2cc(C(F)(F)F)cc(NC3CC3)n2n1)c1cccnc1,-4.53

# Repeated from above (series 4):
Structure (SMILES),nuclei count [z-score]
CCCCC1CCC(c2nc(-c3ccncc3)no2)CC1 (stereo not drawn),-0.863
CC1(C)CCC(C)(C)c2cc(NC(=O)c3ccc(C(=O)O)cc3)ccc21,-1.31
O=C(Nc1nc2cc(C(F)(F)F)cc(NC3CC3)n2n1)c1cccnc1,-4.53
